# Assay results pooled from the literature.
# Lines come from different studies, so protocols differ. ± marks the error that the study gave.
# Organism: Influenza A virus
SMILES,assay,system,conditions,quantity,result
CCC(CC)O[C@@H]1C=C(C(=O)O)C[C@H](N)[C@H]1NC(C)=O,"viral replication, visual CPE score","MDCK, H3N2",,EC50,20 ± 0.61 µM
CC(=O)N[C@H]1[C@H]([C@H](O)[C@H](O)CO)OC(SCCCCCCSC2(C(=O)O)C[C@H](NC(=N)N)[C@@H](NC(C)=O)[C@H]([C@H](O)[C@H](O)CO)O2)(C(=O)O)C[C@@H]1NC(=N)N (some centres unmarked),,H1N1 A/California/07/2009,,IC50,0.01 to 1 µM
COc1ccc(NC(=S)NCc2cccc3cn[nH]c23)cc1OC,"viral replication, inhibitor","MDCK, H1N1 WSN",,EC50,0.69 µM
CC(N)C12CC3CC(CC(C3)C1)C2 (centres unmarked),"viral cytopathic effect, MTS","MDCK, H3N2",,EC50,> 200 µM
C1CC2C1C1CCC2C2CNCC12 (centres unmarked),viral replication,"MDCK, A/HK/7/87 (H3N2)",24 h,EC99,< 0.08 µM
CCOC(=O)C1=C[C@@H](OC(CC)CC)[C@H](NC(C)=O)[C@@H](N)C1,plaque formation,H1N1,30 min,IC50,0.001 to 0.01 µM
NC(=O)c1ncn([C@@H]2O[C@H](CO)[C@@H](O)[C@H]2O)n1,viral replication,H1N1,,IC50,28.2 µM
NC12CC3CC(CC(C3)C1)C2,"viral cytopathic effect, MTS","MDCK, H1N1",,EC50,445 µM
Cc1cc(OCc2nnc(SC3CCCC3)n2-c2cccnc2)ccc1-c1ccc(S(C)(=O)=O)cc1,,"MDCK, A/WS/33 (H1N1)","0.5 µM, 24 (unit not given), infected cells",viability,80 ± 5%
NC12CC3CC(CC(C3)C1)C2,viral replication,A/PR/8/34 parent allantoic stock,pH 4.9,EC50,67 ± 8 µM
CC(=O)N[C@H]1[C@H]([C@H](O)[C@H](O)CO)OC(SCCOCCOCCOCCSC2(C(=O)O)C[C@H](NC(=N)N)[C@@H](NC(C)=O)[C@H]([C@H](O)[C@H](O)CO)O2)(C(=O)O)C[C@@H]1NC(=N)N (some centres unmarked),viral replication,,,IC50,0.01 to 1 µM

# For quick reference, copied from above:
SMILES,assay,system,conditions,quantity,result
Cc1cc(OCc2nnc(SC3CCCC3)n2-c2cccnc2)ccc1-c1ccc(S(C)(=O)=O)cc1,,"MDCK, A/WS/33 (H1N1)","0.5 µM, 24 (unit not given), infected cells",viability,80 ± 5%
